Assay results from different studies.
Numbered parts are unrelated; each lists some results of a single study. Substitutions count along the parent as printed.

Set 1
Target: CCNB2, cyclin fold, Cln2 fusion (human)
Method: yeast growth competition, sequencing
Sample: yeast
Setting: weak parent motif
Baseline: not given
Direction: higher = stronger binding
Parent: RBL1 docking peptide (human); GSAKRRLFGEDPP
Under “normalised enrichment score”, `GSAKRRLLGEDPP [F8L]` is recorded as 0.0428.
`GSAKRRLFEEDPP [G9E]` — result for “normalised enrichment score”: -0.0298.
`GSAKQRLFGEDPP [R5Q]` — result for “normalised enrichment score”: -0.395.
Under “normalised enrichment score”, `GSAKRRLFGEDPI [P13I]` is recorded as 0.496.
`GSAKRRLFVEDPP [G9V]`: “normalised enrichment score” 0.574.

Set 2
Target: Sal-like protein 4, full length isoform A (SALL4, Homo sapiens, UniProt Q9UJQ4, residues 1-1053)
UniProt Q9UJQ4, sequence (whole entry, looked up): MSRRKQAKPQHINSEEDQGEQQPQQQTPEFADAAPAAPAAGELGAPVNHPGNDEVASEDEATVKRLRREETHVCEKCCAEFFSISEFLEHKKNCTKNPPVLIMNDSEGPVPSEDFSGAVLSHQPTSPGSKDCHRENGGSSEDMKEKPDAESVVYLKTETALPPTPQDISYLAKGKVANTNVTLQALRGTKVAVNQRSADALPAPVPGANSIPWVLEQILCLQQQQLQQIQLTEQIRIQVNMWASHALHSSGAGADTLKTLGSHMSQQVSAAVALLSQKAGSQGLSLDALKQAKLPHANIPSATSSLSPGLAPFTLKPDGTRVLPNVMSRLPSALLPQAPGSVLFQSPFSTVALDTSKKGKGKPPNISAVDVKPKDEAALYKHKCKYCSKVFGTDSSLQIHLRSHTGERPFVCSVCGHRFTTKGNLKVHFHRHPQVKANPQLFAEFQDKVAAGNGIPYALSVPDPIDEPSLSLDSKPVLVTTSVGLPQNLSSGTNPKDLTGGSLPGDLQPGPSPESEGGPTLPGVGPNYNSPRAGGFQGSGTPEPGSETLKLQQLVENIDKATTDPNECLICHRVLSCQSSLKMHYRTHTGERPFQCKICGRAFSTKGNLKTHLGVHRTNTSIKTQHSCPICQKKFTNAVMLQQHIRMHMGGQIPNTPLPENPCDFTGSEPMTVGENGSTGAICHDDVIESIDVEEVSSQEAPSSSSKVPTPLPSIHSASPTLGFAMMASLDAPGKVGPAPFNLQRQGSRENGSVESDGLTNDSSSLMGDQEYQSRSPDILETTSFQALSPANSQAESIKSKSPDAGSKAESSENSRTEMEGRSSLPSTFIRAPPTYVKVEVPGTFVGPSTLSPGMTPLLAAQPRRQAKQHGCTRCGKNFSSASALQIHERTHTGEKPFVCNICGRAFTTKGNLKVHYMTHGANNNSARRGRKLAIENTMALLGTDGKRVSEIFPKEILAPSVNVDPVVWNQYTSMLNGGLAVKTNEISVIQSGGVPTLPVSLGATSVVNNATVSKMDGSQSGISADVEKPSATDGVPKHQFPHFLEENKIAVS
Method: universal PBM
Molecule type: double-stranded DNA, one strand shown
Sample: in vitro
Concentration: 600 nM
Setting: 8-mer, flanks averaged, mean of replicates
Direction: higher = stronger binding
The E-score of `ACCGTGCT` is reported as -0.243.
`TGACTCAA` has an E-score of 0.0278.
The E-score of `GCGCGCTA` is reported as -0.105.
`CTTCAGGA` gave an E-score of -0.0448.
For `CGTGAGGA`, the E-score was -0.157.
`ATCCAATG` has an E-score of -0.0181.
For `TAGAGTAA`, the E-score was 0.172.
`CCGTTGCA` has an E-score of -0.158.

Set 3
Target: RING finger protein unkempt homolog, zinc fingers 1-6, GST-SBP tag (UNK, Homo sapiens, UniProt Q9C0B0, residues 30-357)
UniProt Q9C0B0, sequence (30-357, looked up): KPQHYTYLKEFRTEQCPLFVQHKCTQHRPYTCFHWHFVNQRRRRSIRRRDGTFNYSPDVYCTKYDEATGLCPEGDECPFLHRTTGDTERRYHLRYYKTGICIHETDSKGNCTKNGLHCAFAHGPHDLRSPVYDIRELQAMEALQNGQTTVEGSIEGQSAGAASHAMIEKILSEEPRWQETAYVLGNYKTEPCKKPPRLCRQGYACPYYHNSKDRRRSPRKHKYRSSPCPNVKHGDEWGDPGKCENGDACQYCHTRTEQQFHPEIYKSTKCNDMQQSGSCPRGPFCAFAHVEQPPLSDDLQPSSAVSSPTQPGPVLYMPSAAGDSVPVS
Method: RNA Bind-n-Seq
Molecule type: RNA
Sample: in vitro
Concentration: not given
Setting: RNA with constant flanks, ends assumed
Baseline: input RNA pool
Direction: higher = stronger binding
Shared flanks, not repeated: GGGAGUUCUACAGUCCGACGAUC … CAACAGAGGAUUGAGCAUCA
`AACAAUGAUAUUAGUAGUCUGCCCUGCUCAUUGGGAAAUCUUCAUUUGAAAUUCCUGGCACCCGAAGGAAAUCCUCUAAGAACCAUUCGAAGAGAAAUUAUAGCUAAAGGAACUCAAGAA` has a bound/input enrichment of 0.304 ratio.
`GGGUCUACUAUAUGUAAAAAGUAUACAUAUAAAAAUAUAUAUAUAUAAUGUUUGUUUAAAACCGAGUAUUUUUAUUUCCUCCCUAACUCAUCAUUGAAGAGGUGAUAUUACACUUCAGAU` gave a bound/input enrichment of 0.409 ratio.
The bound/input enrichment of `CCACCACCAGUGGUUCUCCAGAGCCUAAAUGGAAUACUUAAAACACACUGCUGAGUUGUACCGUUUCUUUUUCUUUUAUAUAUAUAUAUAUGUGUAUAUGUAACAAAGCAUUAUUCAGGU` is reported as 0.281 ratio.
`GCUGUGACCCAGAAUAAAACUAAUAUUUCAACAGCAAGUGCCACAGUUUCUGCUGCCACCCGUACUGAAAGCAUUUCUACUAGGAAAGUAUUGCCAAUGUCCAUUGCUAGACAUAAUAUA` has a bound/input enrichment of 7.51 ratio.
With `CCAACGUUAGAAGCAGCCUGGCCUCAUCUACAGCUUGUUUAUGAAUUUUUCUUAAGAUUUUCCGAGUCUCCAGAUUUCCAACCUAAUAUAGCGAAGAAAUAUAUUGAUCAGAAGUUUGUA` the bound/input enrichment was 1.46 ratio.

Further values, each from its own experiment
For `PhoQ, residues 284 288 289 292 302 303 AAQSYM`, the fold induction was 28.1 (PhoP, residues 12 14 15 18 19 LHTVM (Escherichia coli, UniProt P23836); Sort-seq, refers to: YFP reporter; E. coli; PhoQ-PhoP variant library, with: 10 µM Mg2+; baseline: high Mg2+ state, higher = stronger signaling).

A few entries again (set 2):
`ATCCAATG` has an E-score of -0.0181.
The E-score of `GCGCGCTA` is reported as -0.105.
`CCGTTGCA` has an E-score of -0.158.
